Experimental data from different studies.
Each line is one published result; not all experiments were run side by side. Numbers after ± are the reported error.
Target: Dual specificity mitogen-activated protein kinase kinase 7 (MAP2K7, Homo sapiens, UniProt O14733)
One construct used (O14733 1-419): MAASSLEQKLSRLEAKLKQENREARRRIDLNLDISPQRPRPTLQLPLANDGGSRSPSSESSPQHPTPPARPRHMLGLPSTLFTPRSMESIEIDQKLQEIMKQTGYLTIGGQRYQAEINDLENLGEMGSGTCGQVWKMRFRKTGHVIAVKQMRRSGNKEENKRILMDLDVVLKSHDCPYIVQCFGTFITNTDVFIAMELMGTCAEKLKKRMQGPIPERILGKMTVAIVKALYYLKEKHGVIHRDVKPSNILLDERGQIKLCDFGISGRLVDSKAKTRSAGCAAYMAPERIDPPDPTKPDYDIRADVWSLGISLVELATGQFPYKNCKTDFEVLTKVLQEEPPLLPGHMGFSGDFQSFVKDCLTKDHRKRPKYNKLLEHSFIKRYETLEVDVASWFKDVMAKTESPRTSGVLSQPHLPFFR

CC/C(=N\NC(=O)NCc1cccc(O)c1)c1ccc(O)c(C)c1O
inhibition (kinase activity; 0.1 µM): -9.1%

CCN(CC)c1ccc(C2=NNC(=O)CC2C)cc1[N+](=O)[O-] (stereo not shown)
remaining activity (enzyme activity, inhibitor; 10 µM; relative to: vehicle): 102%

C[C@@H](c1ccc(-n2cnc3c(N)ncnc32)cc1)N1CCc2nn(C)c(Cc3ccccc3)c2C1=O
remaining binding (KINOMEscan; 0.1 µM; relative to: DMSO control): 73%

CCN1CCN(Cc2ccc(NC(=O)c3ccc(C)c(/C=C/c4cnc5[nH]ccc5c4OC)c3)cc2C(F)(F)F)CC1
inhibition (A-375; 0.5 µM): -14%

C=CC(=O)N1CCC[C@@H](n2nc(-c3ccc(Oc4ccccc4)cc3)c3c(N)ncnc32)C1
remaining activity (kinase activity, inhibitor, HotSpot radiometric; 100 nM, added: ATP 10 µM): 62.7 ± 0.6%

CNc1ncc2c(/C=C/C(=O)N3CCC(OC)CC3)nn(Cc3cccc(C(F)(F)F)c3)c2n1
remaining activity (kinase activity, inhibitor; 1 µM; relative to: untreated control): 88%

CCCOc1ccc(OC)c(F)c1C(=O)c1ccc(C(=O)N[C@@H]2CNC[C@H]2NC(=O)c2ccc3[nH]ncc3c2)cc1
remaining activity (enzyme activity; 10 µM): 107%

C#Cc1cccc(Oc2ccc(-c3nn([C@@H]4CCCN(C(=O)C=C)C4)c4ncnc(N)c34)cc2)c1
SILAC ratio (ABPP-SILAC; 1 µM, 1 h; relative to: DMSO): 20

CNCc1ccc(-c2cc(-c3nc(-c4ccc(S(=O)(=O)C(C)C)cc4)cnc3N)on2)cc1
inhibition (enzyme activity; 2 µM, added: ATP at Km): 0%

COc1ccc(F)cc1C(=O)NCc1ccc(-c2nn([C@@H](C)C(F)(F)F)c(N)c2C(N)=O)cc1
remaining activity (kinase activity, inhibitor, HotSpot radiometric; 100 nM, added: ATP 10 µM): 97.6 ± 2%

CC(C)c1ccc(NC(=O)c2cccs2)c(-c2nc3ccccc3[nH]c2=O)c1
remaining activity (kinase activity; 1 µM): 82%

CC#CC(=O)N1CCC[C@H]1c1nc(-c2ccc(C(=O)Nc3ccccn3)cc2)c2c(N)nccn12
remaining activity (kinase activity, inhibitor, HotSpot radiometric; 100 nM, added: ATP 10 µM): 97.8 ± 1%

C=CC(=O)N1CCC(C(=O)NCC(=O)N2CCN(c3nc(-c4cnc(N)nc4C(F)F)nc(N4CCOCC4)n3)CC2)CC1
remaining binding (KINOMEscan; 1 µM): 98%

Repeated from above:
C=CC(=O)N1CCC[C@@H](n2nc(-c3ccc(Oc4ccccc4)cc3)c3c(N)ncnc32)C1
remaining activity (kinase activity, inhibitor, HotSpot radiometric; 100 nM, added: ATP 10 µM): 62.7 ± 0.6%
